Experimental data gathered from unrelated publications.
Compare with care: the assays were run in different laboratories. Numbers after ± are the reported error.
Cell line: HCT-116

| Compound | test | conditions | scale | quantity | result |
| --- | --- | --- | --- | --- | --- |
| COc1c(CCC[P+](c2ccccc2)(c2ccccc2)c2ccccc2)cc2c(c1OC)OCO2.[I-] | SRB | – | – | GI50 | -5.92 log M |
| COC1=C(N)C(=O)c2nc(-c3nc(C(=O)O)c(C)c(-c4ccc(OC)c(OC)c4O)c3N)ccc2C1=O | protein SUMOylation, western blot, item: SUMOylated proteins | – | – | EC50 | ~1 µM |
| Cn1cncc1C1=CN(c2ncnc3[nH]cnc23)CCS1 | – | colon cancer | – | CC50 | > 200 µM |
| O=C1Nc2c(C(F)(F)F)cccc2[C@@]1(c1ccc(O)cc1)c1ccc(OC(F)(F)F)cc1 | cell viability, Alamar blue | dose-response curve bottom | – | maximal cell death | ~38% |
| COc1cc(CCC[P+](c2ccccc2)(c2ccccc2)c2ccccc2)c(OC)c2c1OCO2.[I-] | SRB | – | – | TGI | -4.79 log M |
| CN1CCN(C2(CNC3CCN(c4cccc(-c5cc6cc(F)ccc6[nH]5)c4)CC3)CCC2)CC1 | – | – | – | GI50 | 1.19 µM |
| S=P1(C2CCCCC2)CCCCC1 | MTT | 72 h | relative to: IC50 HaCaT over IC50 HCT-116 | selectivity index | 1 |
| COc1ccc(NC(=O)Nc2ccc3c(c2)C=CCP(=O)(O)O3)cc1 | cell proliferation, MTT | 100 µM, 72 h, normoxia | – | maximal inhibition | 40% |
| O=C1CCP(=S)(c2ccccc2)CC1 | trypan blue | IC50, 72 h | – | viability reduction | 18% |
| Nc1nc2nc[nH]c2c(=S)[nH]1 | clonogenic | 1.25 µM, 10 days | – | surviving fraction | 0.986 |
| S=P1(c2ccccc2)CCCCC1 | MTT | 72 h | relative to: IC50 HaCaT over IC50 HCT-116 | selectivity index | 1 |
| O=c1c2ccccc2nc(S)n1-c1ccccc1 | cytotoxicity, LDH release | 24 h, 50% viability reduction | – | IC50 | 1450 ± 22.2 µM |

Excerpt of the above:
| Compound | test | conditions | scale | quantity | result |
| --- | --- | --- | --- | --- | --- |
| Cn1cncc1C1=CN(c2ncnc3[nH]cnc23)CCS1 | – | colon cancer | – | CC50 | > 200 µM |
